Results from different studies.
Lines come from different studies, so protocols differ. Values joined by “and” are separate records of one study, mostly repeats; a detail may differ. ± gives the spread as reported.

SMILES | tested on | assay | system | setting | scale | measurement | value
Cn1cc(-n2cnc3c(NCc4nc5cc(Cl)c(Cl)cc5[nH]4)nc(N4CCOCC4)nc32)cn1 | MDA-MB-231 | qRT-PCR, item: ATR |  | 50 nM, 6 h, unit not given | baseline: untreated | mRNA level | 0.681
C=CC(=O)N1[C@@H](c2ccc3c(c2)OCO3)c2[nH]c3ccccc3c2C[C@H]1C(=O)NC | rat DRG neurons |  |  | 30 µM, 48 h, together with: vincristine 40 nM |  | neuron degeneration | 18.3% and 15.9%
CCn1cc(-c2cc(Cn3ccoc3=N)cc3c2CCN([C@@H](C)c2cc(OC)ccn2)C3=O)c(C(F)(F)F)n1 | BICR16 | cell growth |  | 120 h |  | EC50 | 55.7 nM
O=C(/C=C/C=C/C=C/C1CCCCC1)NC1=C[C@@](O)(/C=C/C=C/C=C/C(=O)NC2=C(O)CCC2=O)[C@@H]2O[C@@H]2C1=O | COLO-741 | cell growth, CellTiter-Glo |  | 78 h |  | GI50 | 17400 nM
COc1c(C)c(OC(C)=O)c(C)c(OC(C)=O)c1C(=O)/C=C/c1ccccc1 | SH-SY5Y | SRB |  |  | baseline: normal over SH-SY5Y IC50 | selectivity index | 1.46
COc1ccc(N)cc1-c1c[nH]c2ncc(-c3cncc(C(=O)N(C)C)c3)cc12 | Ba/F3 BCR-ABL wild type | cell proliferation |  | 72 h |  | GI50 | 218 ± 30.3 nM
CCCCCCCCCCCCCCCCCCOc1ccc(CC(=O)OCC[N+]2(C)CCCC2)cc1 | NSCLC panel (nine cell lines) |  |  | 10 µM |  | mean growth inhibition | 4.11%
COc1ccc(-n2nc(C(C)=O)s/c2=N\N=C(/C)c2ccc(NC(=O)c3ccccc3)cc2)cc1 | MCF7 |  |  | 0.156 µM |  | toxicity | 64%
CN1CCN(C(=O)c2ccc([C@H]3[C@@H](F)[C@@H](F)C[C@@H](F)[C@H]3F)cc2)CC1=O |  | hepatocyte stability | cryopreserved mouse hepatocytes | 1 µM |  | hepatic clearance | 21 mL/min/kg
COc1cc2ncn(-c3cc(OCc4ccccc4C(F)(F)F)c(C(N)=O)s3)c2cc1OC | SNU-1040 |  |  | 330 nM, 3 days, 100% DMSO | baseline: vehicle | cell growth | 112%
CC(C)NCC(O)c1ccc(O)c(O)c1 (stereo not drawn) | mouse ventricular cardiomyocytes |  |  | dose not given, 0.299 s |  | sarcomere length | 1.8 µm
Nc1ncnc2nc(-c3ccc(N4CCOCC4)nc3)cc(-c3cccc(Br)c3)c12 | activated human T cells |  | human | 10 nM |  | T cell proliferation | 5.7% and 7.1% and 2.6%
Nc1cccc2c1C(=O)N(C1CCC(=O)NC1=O)C2=O (stereo not drawn) | MM1.S resistant to compound | XTT |  | 0.8 µM |  | viability | 57% and 60% and 99%
CC(C)C[C@H](NC(=O)C[C@H](O)[C@H](CC(C)C)NC(=O)[C@H](Cc1c[nH]cn1)NC(=O)CNC(=O)[C@@H](NC(=O)[C@H](C)NC(=O)[C@H](Cc1c[nH]c2ccccc12)NC(=O)[C@H](CCC(N)=O)NC(=O)[C@@H](Cc1ccccc1)NC(=O)COCCOCCNC(=O)CCC(C(=O)O)N1CCN(CC(=O)O)CCN(CC(=O)O)CCN(CC(=O)O)CC1)C(C)C)C(N)=O (stereo partly drawn) [lutetium-177 labelled] |  |  | female BALB/c nu/nu mice, liver | intravenous, 50 pmol, 1 h |  | tissue uptake | 0.97 ± 0.19 %ID/g
Cc1cc(Nc2ncc(Cl)c(Nc3ccccc3S(=O)(=O)C(C)C)n2)c(OC(C)C)cc1C1CCNCC1 | CLB-BAR | phosphoproteomics LC-MS/MS, item: FRS2 phosphorylation |  | 200 nM, 60 min | baseline: untreated | log2 fold change | -4.11
CCCCCN1C[C@H](O)[C@@H](O)[C@H](O)[C@@H]1CO | Sandhoff disease patient fibroblasts | glycosphingolipid lowering, LC-MS/MS, item: GM3 d18:1/18:0 | human |  |  | IC50 | 388 nM
CN(C)CCC(=O)Nc1ccc([C@H]2[C@@H](F)[C@@H](F)C[C@@H](F)[C@H]2F)cc1 |  | hepatocyte stability | cryopreserved human hepatocytes | 1 µM |  | hepatic clearance | 6.2 mL/min/kg
CCn1cc(-c2cc(Cn3ccnc3)cc3c2CCN([C@H](c2cc(OC)ccn2)C2CC2)C3=O)c(C(F)(F)F)n1 | KURAMOCHI | cell growth, inhibitor |  | 120 h |  | EC50 | 9970 nM
Cn1cc(Nc2nccc(-c3ccc4c(c3)CN(C3COC3)CC[C@H]4NC(=O)c3cn(C(C)(C)C)nn3)n2)cn1 | human B cells |  |  | 100 nM, 64 h, non-stimulation-regulated genes, together with: CpG ODN2006 |  | number of downregulated genes | 531
C[C@@H](Oc1cc(-n2cnc3ccc(OC[C@@H](O)CO)cc32)sc1C(N)=O)c1ccccc1Cl | Trypanosoma brucei |  |  | unit not given | baseline: pEC50 T. brucei minus pTC50 HepG2 | selectivity | > 2.7
CC(C)(c1ccc(O)cc1)c1ccc(O)cc1 | HepG2 spheroids | planimetry |  | 2.5 µM, 0 to 24 h | baseline: mean area of 72 h spheroids | spheroid area increase | 120%
Cn1cc(-c2ccc(-c3cncc(Cl)c3N3CCC4(CCNC4=O)CC3)cc2)cn1 | COLO 205 | gene expression, microarray, item: NFE2L2 mRNA |  | concentration not given, 6 h | baseline: untreated cells | log2 fold change | -1.16
CC/C(=N\NC(=O)NCc1cccc(O)c1)c1ccc(O)c(C)c1O | SK-OV-3 | Western blot, item: LATS |  | 10 µM, 6 h, 3D gellan gum culture, unit not given | baseline: β-actin | protein level | 0.65 ± 0.52
O=c1[nH]nc(OCCCc2ccc(Cl)cc2)c(NCc2cccnc2)c1Br | HEK293T | RNA-seq, item: PON2 mRNA |  | 10 µM, 6 h | baseline: vehicle | log2 fold change | -0.0979

For quick reference, copied from above:
SMILES | tested on | assay | system | setting | scale | measurement | value
Cc1cc(Nc2ncc(Cl)c(Nc3ccccc3S(=O)(=O)C(C)C)n2)c(OC(C)C)cc1C1CCNCC1 | CLB-BAR | phosphoproteomics LC-MS/MS, item: FRS2 phosphorylation |  | 200 nM, 60 min | baseline: untreated | log2 fold change | -4.11
